Experimental data pooled from the literature.
Every numbered part comes from another study and shows a few of its results, in no order.
Chain of UniProt Q9NQU5 (whole entry, looked up): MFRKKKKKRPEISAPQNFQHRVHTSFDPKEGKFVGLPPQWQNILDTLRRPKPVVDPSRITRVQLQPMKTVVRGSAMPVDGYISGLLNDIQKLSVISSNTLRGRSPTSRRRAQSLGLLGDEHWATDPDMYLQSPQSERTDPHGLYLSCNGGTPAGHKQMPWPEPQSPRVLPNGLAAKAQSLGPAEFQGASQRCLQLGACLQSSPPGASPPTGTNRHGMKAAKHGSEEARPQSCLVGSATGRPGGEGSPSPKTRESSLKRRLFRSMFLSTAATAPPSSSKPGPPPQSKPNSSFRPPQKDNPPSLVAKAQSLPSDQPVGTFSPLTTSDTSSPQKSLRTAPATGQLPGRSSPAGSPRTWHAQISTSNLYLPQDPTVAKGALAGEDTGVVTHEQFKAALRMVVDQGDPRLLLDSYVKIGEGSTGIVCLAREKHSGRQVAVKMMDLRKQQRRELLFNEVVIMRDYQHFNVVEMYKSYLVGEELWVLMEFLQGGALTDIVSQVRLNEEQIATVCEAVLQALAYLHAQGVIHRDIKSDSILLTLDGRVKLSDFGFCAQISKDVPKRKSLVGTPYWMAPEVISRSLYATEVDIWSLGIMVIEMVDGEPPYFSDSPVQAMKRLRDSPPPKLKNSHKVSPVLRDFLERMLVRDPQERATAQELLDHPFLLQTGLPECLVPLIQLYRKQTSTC

Study 1
Target: Prothrombin, mature alpha-thrombin (F2, Homo sapiens, UniProt P00734)
Method: aptamer microarray, sandwich
Molecule type: DNA with 2'F-ANA
Medium: in vitro
Tested at: 200 nM
Setting: whole 15-mer aptamer, many near background
Added: Cy3 exosite-II aptamer, 400 nM
Reading: higher = stronger binding
Quantity: mean fluorescence intensity
Sequence: GGTTGGTGTGGTTGG
2'F-ANA at 1 2 4 5 6 7 10 14 15: 46.3 a.u.
2'F-ANA at 2 3 8 9 10 12 13 15: 410 a.u.
2'F-ANA at 1 2 3 4 5: 57.1 a.u.
2'F-ANA at 5 6 8 9 15: 69 a.u.
2'F-ANA at 2 3 4 5 9 11 12 13 14 15: 53.7 a.u.
2'F-ANA at 2 5 6 7 8 9 11 13 15: 109 a.u.
2'F-ANA at 2 5 7 9 11 13 14 15: 48.5 a.u.
2'F-ANA at 1 2 4 5 9 11: 52.1 a.u.

Study 2
Target: Centromere-binding protein 1, full length, N-terminal tag (CBF1, Saccharomyces cerevisiae, UniProt P17106, residues 1-351)
Chain of UniProt P17106 (whole entry, looked up): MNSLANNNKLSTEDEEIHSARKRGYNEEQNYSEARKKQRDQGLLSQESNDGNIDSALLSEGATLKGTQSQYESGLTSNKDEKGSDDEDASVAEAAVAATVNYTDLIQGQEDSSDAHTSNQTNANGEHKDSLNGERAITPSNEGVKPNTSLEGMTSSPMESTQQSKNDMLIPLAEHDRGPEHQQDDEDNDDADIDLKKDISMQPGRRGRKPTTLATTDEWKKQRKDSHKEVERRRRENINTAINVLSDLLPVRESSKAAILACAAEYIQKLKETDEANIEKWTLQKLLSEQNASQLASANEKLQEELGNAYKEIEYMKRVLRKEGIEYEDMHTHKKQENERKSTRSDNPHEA
Method: protein-binding microarray
Molecule type: double-stranded DNA, one strand shown
Medium: in vitro
Tested at: 0.8 µM
Setting: whole 60-bp probe, no competitor
Reading: higher = stronger binding
Quantity: fluorescence intensity
Shared flanks, not repeated: … GTCTTGATTCGCTTGACGCTGCTG
CTAGTATGCTGAACCAACGTGTTGCTTGCCAACTTC: 499 a.u.
CTACAATCACCCCCTCGTGAGAATTTAATGTGGTTC: 652 a.u.
CCTAACTACTATAGCCACGTTTGATAGCTTCGTACA: 543 a.u.
GAACACAGGTCCAATCACGCAGCTTCATTACAGTAG: 593 a.u.
GAATATTCTAAGCCGCACGTAGTAACAAATCTTTAG: 519 a.u.
GAAGTGGGTGTGGGTGTGGTGTGGGTGTGTGGGTAG: 535 a.u.
CTATCGCAAATTTCTGTCACCTTCTTCTTTATGTTC: 556 a.u.
CTAGTTTTTGCGCAGATCGTGATATAAAATGTTTTC: 935 a.u.

Study 3
Target: PABPC1L2, full length, GST fusion (mouse, UniProt A0ABA7IW68)
Method: RNAcompete
Molecule type: RNA
Medium: in vitro
Tested at: 20 nM
Setting: 7-mer, probes averaged, single round
Relative to: mean of 7-mers
Reading: higher = stronger binding
Quantity: 7-mer Z-score
Construct (chain): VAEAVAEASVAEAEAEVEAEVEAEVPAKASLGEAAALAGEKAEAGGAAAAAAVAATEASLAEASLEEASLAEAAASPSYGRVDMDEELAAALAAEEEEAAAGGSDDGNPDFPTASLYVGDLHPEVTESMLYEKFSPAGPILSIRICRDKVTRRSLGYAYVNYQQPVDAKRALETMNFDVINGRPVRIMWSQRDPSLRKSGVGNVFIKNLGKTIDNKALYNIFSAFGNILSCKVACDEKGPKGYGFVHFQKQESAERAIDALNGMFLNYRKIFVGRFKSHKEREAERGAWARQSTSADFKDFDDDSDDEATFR
ACGCACA: -0.106
GUCGUCG: -0.47
CCGGAUG: -0.021
GUUGCGG: -0.0536
GACCCUU: -0.244
CUGCACG: -0.122
ACACUAC: -0.128
CCACCAA: -0.0246

Other studies, line by line
CC[n+]1c(/C=C/N(C)c2ccccc2)n(-c2ccccc2)c2ccc(-c3nc4ccccc4s3)cc21
remaining activity (Serine/threonine-protein kinase PAK 6 (PAK6, Homo sapiens, UniProt Q9NQU5); enzyme activity, inhibitor; 0.5 µM; relative to: control): 95.5%

For quick reference, copied from above (study 3):
GUCGUCG: -0.47
CUGCACG: -0.122
